Experimental data collected from several papers.
Protocols differ between the studies behind these lines. ± gives the spread as reported.
rep main protease: Replicase polyprotein 1ab, main protease (rep, Severe acute respiratory syndrome coronavirus 2, UniProt P0DTD1)
Spike glycoprotein: Spike glycoprotein (Severe acute respiratory syndrome coronavirus 2, UniProt P0DTC2)

SMILES	target or system	assay	system	conditions	scale	quantity	value
Cn1cnc(Cn2c(=O)[nH]/c(=N\c3cc4cn(C)nc4cc3Cl)n(Cc3cc(F)c(F)cc3F)c2=O)n1			human, moderate renal impairment, plasma	oral, 375 mg single dose, 3 h		unbound fraction	0.0125
CCCCCCc1ccc(O)cc1O	rep main protease	reporter gene (mKate2), inhibitor		20 µM		inhibition	-0.105%
Cc1cc(C(=O)N2[C@@H]3CCC[C@H]2CC(NC(=O)c2cc[nH]c(=O)c2)C3)cc(=O)[nH]1 (stereo partly drawn)	rep main protease	enzyme activity, inhibitor		5 µM, run 1		inhibition	12.8%
CC(=O)c1c(O)c(C)c(O)c(Cc2c(O)c3c(c(C(=O)/C=C/c4ccccc4)c2O)OC(C)(C)C=C3)c1O	Replicase polyprotein 1ab, nsp14 N7-methyltransferase (rep, Severe acute respiratory syndrome coronavirus 2, UniProt P0DTD1)	N7-methyltransferase activity, inhibitor, Py-FLINT				Hill slope	1.11 ± 0.15
O=C1NC(=O)C2(CC(C(=O)NC[C@@H]3CC4(CCC4)CN3C(=O)c3ccn4ccnc4c3)C2)N1 (stereo partly drawn)	rep main protease	enzyme activity, inhibitor		5 µM, run 2		inhibition	8.4%
CC[C@H](C)[C@H](NC(=O)[C@H](CC(C)C)NC(=O)[C@H](CO)NC(=O)[C@H](Cc1c[nH]cn1)NC(=O)[C@@H](NC(=O)[C@H](CC(C)C)NC(=O)[C@H](CO)NC(=O)[C@@H](NC(=O)[C@H](Cc1ccc(O)cc1)NC(=O)[C@H](CC(N)=O)NC(=O)[C@H](CC(N)=O)NC(=O)[C@@H](NC(=O)[C@H](CCC(=O)O)NC(=O)[C@H](CCCNC(=N)N)NC(=O)[C@H](CC(=O)O)NC(=O)[C@H](Cc1c[nH]c2ccccc12)NC(=O)[C@H](CCC(=O)O)NC(=O)[C@H](CCSC)NC(=O)[C@H](Cc1c[nH]c2ccccc12)NC(C)=O)[C@@H](C)CC)[C@@H](C)O)[C@@H](C)CC)C(=O)N[C@@H](CCC(=O)O)C(=O)N[C@@H](CCC(=O)O)C(=O)N[C@@H](CO)C(=O)N[C@@H](CCC(N)=O)C(=O)N[C@@H](CC(N)=O)C(=O)N[C@@H](CCC(N)=O)C(=O)N[C@@H](CCC(N)=O)C(=O)N[C@@H](CCC(=O)O)C(=O)N[C@@H](CCCCN)C(=O)N[C@@H](CC(N)=O)C(=O)N[C@@H](CCC(=O)O)C(=O)N[C@@H](CCC(N)=O)C(=O)N[C@@H](CCC(=O)O)C(=O)N[C@@H](CC(C)C)C(=O)N[C@@H](CC(C)C)C(=O)NCC(=O)N[C@@H](CO)C(=O)NCC(=O)N[C@@H](CSCC(=O)O[C@H]1CC[C@@]2(C)C(=CC[C@H]3[C@@H]4CC[C@H]([C@H](C)CCCC(C)(C)O)[C@@]4(C)CC[C@@H]32)C1)C(N)=O	human erythrocytes	membrane binding, di-8-ANEPPS dipole potential				Kd	430 ± 110 nM
O=c1cc(-c2ccccc2)oc2c(O)c(O)ccc12	Spike glycoprotein	binding, BLI				kon	1220 M⁻¹ s⁻¹
CC(=O)O[C@@H]1[C@H](N)[C@@H](OP(=O)(O)O)[C@@]2(C(=O)O)CS[C@@](O)(C(N)=O)[C@@H]1O2	DNA-directed RNA polymerase subunit beta' / DNA-directed RNA polymerase subunit beta (rpoC/rpoB, Escherichia coli, UniProt P0A8T7+P0A8V2)	binding to elongation complex, 6-MI fluorescence titration	wild-type RNAP	3′-deoxy RNA 3′-end Guanine		Kd	1300 ± 300 nM
CNC(=O)[C@@H](NC(=O)[C@H](CC(C)C)[C@H](O)C(=O)NO)C(C)(C)C	human fibrinogen	SDS-PAGE	Daboia russelii	concentration not given, unit not given, added: AP venom	baseline: untreated fibrinogen	remaining fibrinogen γ chain	0.825
CC1(C)C=Cc2cc3ccc(=O)oc3cc2O1	rep main protease	reporter gene (mKate2), inhibitor		20 µM		inhibition	-0.339%
O=C(N[C@@H]1CC[C@H]2C[C@@H]1CN2C(=O)c1ccc(-c2ccccc2)[nH]1)c1cc(O)cc(=O)[nH]1	rep main protease	enzyme activity, inhibitor		5 µM, run 1		inhibition	39.1%
CC[C@H](C)[C@H](NC(=O)[C@H](CC(C)C)NC(=O)[C@H](Cc1c[nH]c2ccccc12)NC(=O)[C@H](CCC(N)=O)NC(=O)[C@@H](NC(=O)[C@H](Cc1ccccc1)NC(=O)[C@H](C)NC(=O)[C@H](CCCCNC(=O)COCCOCCNC(=O)COCCOCCNC(=O)CC[C@H](NC(=O)CCCCCCCCCCCCCCCCCCC(=O)O)C(=O)O)NC(=O)[C@H](CCC(N)=O)NC(=O)[C@H](C)NC(=O)[C@@H](NC(=O)[C@H](CCCCN)NC(=O)[C@H](CC(=O)O)NC(=O)[C@H](CC(C)C)NC(=O)C(C)(C)NC(=O)[C@@H](NC(=O)[C@H](CO)NC(=O)[C@H](Cc1ccc(O)cc1)NC(=O)[C@H](CC(=O)O)NC(=O)[C@H](CO)NC(=O)[C@@H](NC(=O)[C@H](Cc1ccccc1)NC(=O)[C@@H](NC(=O)CNC(=O)[C@H](CCC(=O)O)NC(=O)C(C)(C)NC(=O)[C@@H](N)Cc1ccc(O)cc1)[C@@H](C)O)[C@@H](C)O)[C@@H](C)CC)[C@@H](C)CC)C(C)C)C(=O)N[C@@H](C)C(=O)NCC(=O)NCC(=O)N1CCC[C@H]1C(=O)N[C@@H](CO)C(=O)N[C@@H](CO)C(=O)NCC(=O)N[C@@H](C)C(=O)N1CCC[C@H]1C(=O)N1CCC[C@H]1C(=O)N1CCC[C@H]1C(=O)N[C@@H](CO)C(N)=O			healthy subjects, single ascending dose	5.0 mg, titre ≥1:20		treatment-induced ADA positive subjects	0%
Cc1nc(N)c2cnn(C3CCN(C(=O)c4ccc(S(=O)(=O)F)cc4)CC3)c2n1	cya (Bacillus anthracis, UniProt P40136)	enzyme activity, inhibitor				kinact/KI	581 M⁻¹ s⁻¹
C=C[C@@H]1C[C@]1(NC(=O)[C@@H]1C[C@@H]2CN1C(=O)[C@H](C(C)(C)C)NC(=O)O[C@@H]1C[C@H]1CCCCCc1nc3ccc(OC)cc3nc1O2)C(=O)NS(=O)(=O)C1CC1.O	rep main protease	mKate2 reporter		20 µM		inhibition	1.25%
Nc1ncnc2c([C@@H]3N[C@H](CO)[C@@H](O)[C@H]3O)c[nH]c12	Marburg virus		HeLa, Musoke	1.6 µM, 1 h		viral RNA copies	2.09e+07 copies/mL
c1cnc2c(c1)ccc1cccnc12	rep main protease	reporter gene (Gaussia luciferase), inhibitor		20 µM		inhibition	-3.62%
C=C[C@@](C)(/C=C/c1ccc(O)cc1)CCC=C(C)C	Spike glycoprotein	binding				koff	0.0484 s⁻¹
C[C@@H]1Cc2c(Cl)cc(C(=O)N[C@@H](Cc3ccccc3)C(=O)O)c(O)c2C(=O)O1	Aspergillus niger lipase A	substrate		pH 7.5, 37 °C		Km	500 µM
Cc1ccncc1C(=O)N[C@@H](CNC(=O)C1=NOCC1)c1ccc2ccccc2c1	rep main protease	enzyme activity, inhibitor		5 µM, run 1		inhibition	10%
CC[C@H](C)[C@H](NC(=O)[C@H](CC(N)=O)NC(=O)[C@H](CCC(=O)O)NC(=O)[C@H](C)NC(=O)[C@H](Cc1c[nH]cn1)NC(=O)[C@@H](NC(=O)[C@@H]1CCCN1C(=O)[C@H](CO)NC(=O)[C@@H]1CCCN1C(=O)[C@@H](NC(=O)[C@H](Cc1ccc(O)cc1)NC(=O)[C@@H](NC(=O)[C@H](CCCNC(=N)N)NC(=O)[C@H](CO)NC(=O)[C@@H](NC(=O)[C@H](Cc1c[nH]cn1)NC(C)=O)[C@@H](C)O)[C@@H](C)CC)[C@@H](C)CC)[C@@H](C)CC)C(N)=O	Polyprotein P1234, nsP2 protease domain (Chikungunya virus, UniProt Q8JUX6)	binding, phage display			direction not given	enrichment score	38
Nc1ncnc2c1ncn2[C@H]1C[C@H](O)[C@@H](COP(=O)(O)OP(=O)(O)OP(=O)(O)O)O1	Gag-Pol polyprotein, reverse transcriptase (gag-pol, Human immunodeficiency virus type 1 group M subtype B, UniProt P04585, K653R)	substrate		K66R mutant, added: G:A mismatched primer template		kcat	0.0498 ± 0.0125 s⁻¹
